Measured values from different studies.
A part holds a random share of what one study measured.
Chain of UniProt P78368 (whole entry, looked up): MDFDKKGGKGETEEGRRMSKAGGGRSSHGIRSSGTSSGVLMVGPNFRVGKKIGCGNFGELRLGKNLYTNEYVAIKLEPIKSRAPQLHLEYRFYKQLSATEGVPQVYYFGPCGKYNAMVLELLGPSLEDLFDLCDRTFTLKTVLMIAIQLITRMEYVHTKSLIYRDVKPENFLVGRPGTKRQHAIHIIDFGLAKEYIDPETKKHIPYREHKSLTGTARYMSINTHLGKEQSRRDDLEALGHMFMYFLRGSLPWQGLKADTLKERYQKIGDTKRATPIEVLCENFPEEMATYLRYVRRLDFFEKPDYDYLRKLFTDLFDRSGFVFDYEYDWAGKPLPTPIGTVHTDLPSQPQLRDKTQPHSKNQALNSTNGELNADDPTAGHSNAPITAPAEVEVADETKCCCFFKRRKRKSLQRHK
Chain of UniProt Q9HC98 (whole entry, looked up): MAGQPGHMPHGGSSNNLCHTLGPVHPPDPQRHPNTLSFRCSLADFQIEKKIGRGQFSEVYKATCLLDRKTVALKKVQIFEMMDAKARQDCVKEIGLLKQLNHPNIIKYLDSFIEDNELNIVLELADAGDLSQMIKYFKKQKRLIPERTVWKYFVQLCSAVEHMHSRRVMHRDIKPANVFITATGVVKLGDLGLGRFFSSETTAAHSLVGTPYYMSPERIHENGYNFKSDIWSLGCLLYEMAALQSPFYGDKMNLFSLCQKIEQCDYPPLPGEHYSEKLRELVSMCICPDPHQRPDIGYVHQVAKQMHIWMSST
Chain of UniProt P27361 (whole entry, looked up): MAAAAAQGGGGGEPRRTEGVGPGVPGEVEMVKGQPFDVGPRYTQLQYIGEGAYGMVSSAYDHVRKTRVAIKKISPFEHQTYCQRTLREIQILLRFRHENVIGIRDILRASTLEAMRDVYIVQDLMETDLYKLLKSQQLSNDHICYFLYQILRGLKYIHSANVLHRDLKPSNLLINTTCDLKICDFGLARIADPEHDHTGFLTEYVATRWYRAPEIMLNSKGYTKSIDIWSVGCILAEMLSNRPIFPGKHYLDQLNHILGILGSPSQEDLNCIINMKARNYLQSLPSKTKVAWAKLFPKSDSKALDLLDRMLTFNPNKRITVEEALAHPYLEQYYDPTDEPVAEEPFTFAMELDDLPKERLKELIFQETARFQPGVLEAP
Chain of UniProt Q96PY6 (whole entry, looked up): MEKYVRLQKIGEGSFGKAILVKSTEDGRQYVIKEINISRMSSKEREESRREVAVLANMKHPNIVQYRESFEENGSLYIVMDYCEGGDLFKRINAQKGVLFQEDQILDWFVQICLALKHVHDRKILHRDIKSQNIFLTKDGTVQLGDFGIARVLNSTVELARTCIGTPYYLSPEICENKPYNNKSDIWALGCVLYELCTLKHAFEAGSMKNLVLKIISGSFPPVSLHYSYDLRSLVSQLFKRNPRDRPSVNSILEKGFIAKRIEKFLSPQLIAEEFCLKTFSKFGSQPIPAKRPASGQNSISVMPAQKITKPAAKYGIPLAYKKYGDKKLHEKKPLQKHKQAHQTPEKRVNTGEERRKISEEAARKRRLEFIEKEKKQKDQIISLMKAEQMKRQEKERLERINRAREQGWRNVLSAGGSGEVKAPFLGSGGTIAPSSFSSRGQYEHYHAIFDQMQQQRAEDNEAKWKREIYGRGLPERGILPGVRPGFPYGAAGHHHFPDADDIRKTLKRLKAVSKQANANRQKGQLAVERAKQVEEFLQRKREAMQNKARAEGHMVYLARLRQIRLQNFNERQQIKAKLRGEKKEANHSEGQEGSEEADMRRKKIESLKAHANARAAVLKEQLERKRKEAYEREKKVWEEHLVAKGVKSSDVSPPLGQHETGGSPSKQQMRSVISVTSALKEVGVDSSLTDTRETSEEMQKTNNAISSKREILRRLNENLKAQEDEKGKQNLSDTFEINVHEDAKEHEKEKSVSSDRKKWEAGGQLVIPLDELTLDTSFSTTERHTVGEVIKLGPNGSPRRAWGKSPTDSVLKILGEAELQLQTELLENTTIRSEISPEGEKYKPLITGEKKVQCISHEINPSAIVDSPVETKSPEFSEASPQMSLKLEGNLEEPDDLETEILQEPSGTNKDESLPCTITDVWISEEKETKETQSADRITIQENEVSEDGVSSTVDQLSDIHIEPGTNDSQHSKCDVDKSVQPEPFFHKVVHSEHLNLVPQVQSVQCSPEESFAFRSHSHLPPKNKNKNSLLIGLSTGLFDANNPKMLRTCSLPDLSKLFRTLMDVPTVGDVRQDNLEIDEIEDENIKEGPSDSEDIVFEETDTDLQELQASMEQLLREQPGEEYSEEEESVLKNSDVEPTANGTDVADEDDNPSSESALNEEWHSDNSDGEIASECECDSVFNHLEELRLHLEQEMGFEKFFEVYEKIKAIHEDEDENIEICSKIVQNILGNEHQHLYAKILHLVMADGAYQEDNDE
Chain of UniProt Q15208 (whole entry, looked up): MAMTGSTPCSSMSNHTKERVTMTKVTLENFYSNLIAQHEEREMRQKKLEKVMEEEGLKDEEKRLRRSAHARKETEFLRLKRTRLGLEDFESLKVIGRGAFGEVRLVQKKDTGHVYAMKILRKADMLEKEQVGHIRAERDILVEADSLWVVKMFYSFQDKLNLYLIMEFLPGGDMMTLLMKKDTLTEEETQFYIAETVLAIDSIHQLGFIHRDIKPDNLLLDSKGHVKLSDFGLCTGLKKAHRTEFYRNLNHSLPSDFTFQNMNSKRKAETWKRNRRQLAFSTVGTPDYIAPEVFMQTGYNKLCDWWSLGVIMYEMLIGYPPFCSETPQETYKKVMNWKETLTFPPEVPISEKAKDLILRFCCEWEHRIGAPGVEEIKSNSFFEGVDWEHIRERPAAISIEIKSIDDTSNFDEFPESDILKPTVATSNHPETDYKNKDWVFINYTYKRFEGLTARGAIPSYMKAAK
Chain of UniProt Q12866 (whole entry, looked up): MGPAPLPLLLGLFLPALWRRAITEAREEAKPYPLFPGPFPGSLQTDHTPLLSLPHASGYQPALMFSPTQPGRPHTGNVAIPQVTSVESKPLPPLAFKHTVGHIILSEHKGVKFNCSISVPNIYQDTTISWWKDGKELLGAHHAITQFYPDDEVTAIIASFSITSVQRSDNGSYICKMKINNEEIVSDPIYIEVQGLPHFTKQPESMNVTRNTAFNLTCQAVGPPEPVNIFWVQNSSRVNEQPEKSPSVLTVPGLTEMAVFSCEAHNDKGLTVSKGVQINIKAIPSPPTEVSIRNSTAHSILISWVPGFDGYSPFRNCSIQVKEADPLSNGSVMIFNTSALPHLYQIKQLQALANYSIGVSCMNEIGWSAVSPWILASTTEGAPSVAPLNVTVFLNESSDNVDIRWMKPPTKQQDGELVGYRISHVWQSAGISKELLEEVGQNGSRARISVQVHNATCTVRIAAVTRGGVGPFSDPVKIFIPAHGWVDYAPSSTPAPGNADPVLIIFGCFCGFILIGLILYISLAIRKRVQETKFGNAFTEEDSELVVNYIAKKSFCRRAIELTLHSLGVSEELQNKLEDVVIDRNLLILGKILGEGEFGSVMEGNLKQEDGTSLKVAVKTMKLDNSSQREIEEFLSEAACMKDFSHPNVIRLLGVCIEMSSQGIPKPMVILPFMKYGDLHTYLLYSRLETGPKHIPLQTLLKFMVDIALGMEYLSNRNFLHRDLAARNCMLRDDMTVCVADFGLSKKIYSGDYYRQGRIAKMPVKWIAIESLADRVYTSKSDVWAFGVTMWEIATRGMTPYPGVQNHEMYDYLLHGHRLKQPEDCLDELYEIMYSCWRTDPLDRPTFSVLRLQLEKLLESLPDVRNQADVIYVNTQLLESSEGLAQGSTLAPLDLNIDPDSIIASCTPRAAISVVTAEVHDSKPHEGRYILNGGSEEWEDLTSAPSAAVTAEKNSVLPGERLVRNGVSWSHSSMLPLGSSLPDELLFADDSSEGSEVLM
Chain of UniProt P42336 (whole entry, unmodified, looked up): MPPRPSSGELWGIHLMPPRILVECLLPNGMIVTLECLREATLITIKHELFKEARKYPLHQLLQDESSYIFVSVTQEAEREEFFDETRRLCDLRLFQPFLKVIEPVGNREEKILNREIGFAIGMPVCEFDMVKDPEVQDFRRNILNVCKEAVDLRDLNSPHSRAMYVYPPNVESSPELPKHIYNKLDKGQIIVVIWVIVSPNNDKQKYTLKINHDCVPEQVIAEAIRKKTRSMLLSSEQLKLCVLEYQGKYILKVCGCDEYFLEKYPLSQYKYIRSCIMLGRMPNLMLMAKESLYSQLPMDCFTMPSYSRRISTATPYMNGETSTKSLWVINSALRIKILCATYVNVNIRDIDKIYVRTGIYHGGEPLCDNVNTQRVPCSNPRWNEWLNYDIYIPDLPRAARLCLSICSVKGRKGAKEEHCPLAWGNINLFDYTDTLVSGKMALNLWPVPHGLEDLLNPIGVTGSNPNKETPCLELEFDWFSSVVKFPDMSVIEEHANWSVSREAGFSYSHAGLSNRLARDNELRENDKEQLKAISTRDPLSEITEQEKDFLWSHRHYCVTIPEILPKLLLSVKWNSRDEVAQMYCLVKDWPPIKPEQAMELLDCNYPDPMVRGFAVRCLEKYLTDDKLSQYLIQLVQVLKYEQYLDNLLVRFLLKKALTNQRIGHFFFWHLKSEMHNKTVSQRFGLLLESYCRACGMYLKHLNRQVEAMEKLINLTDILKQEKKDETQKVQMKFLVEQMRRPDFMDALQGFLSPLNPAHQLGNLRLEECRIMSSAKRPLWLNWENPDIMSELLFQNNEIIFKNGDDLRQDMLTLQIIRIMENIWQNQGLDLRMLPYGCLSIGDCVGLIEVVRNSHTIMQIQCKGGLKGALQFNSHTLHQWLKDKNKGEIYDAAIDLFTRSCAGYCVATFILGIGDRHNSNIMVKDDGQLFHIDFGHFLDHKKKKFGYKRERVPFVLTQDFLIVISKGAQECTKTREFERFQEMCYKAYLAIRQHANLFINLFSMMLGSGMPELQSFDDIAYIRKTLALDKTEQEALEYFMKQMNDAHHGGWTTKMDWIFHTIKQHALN

Study 1 — cell line: HH; concentration: 2 µM; time: 48 h; reference: untreated
| SMILES | viability [%] |
| --- | --- |
| COc1ccccc1-c1cc(Nc2cccc(CS(N)(=O)=O)c2)ncn1 | 84.2 |
| COc1ccc(CNC(=O)Nc2ncc([N+](=O)[O-])s2)cc1 | 81.7 |
| Cc1ccc(NC(=O)c2ccc(CN3CCN(C)CC3)cc2)cc1Nc1nc(-c2cccnc2)cs1 | 107 |
| CN1CC[C@H](c2c(O)cc(O)c3c(=O)cc(-c4ccccc4Cl)oc23)[C@H](O)C1 | 10.9 |
| NC(=O)c1cccc(-c2cc(Nc3ccc(OC(F)(F)F)cc3)ncn2)c1 | 98.7 |
| c1cc(-c2cnn3cc(-c4ccc(OCCN5CCCCC5)cc4)cnc23)ccn1 | 57.5 |
| Cn1cc(-c2ccc3nnc(C(F)(F)c4ccc5ncccc5c4)n3n2)cn1 | 105 |
| CC(C)(C#N)c1ccc(N2C(=O)OCc3cnc4ccc(-c5cnc6ccccc6c5)cc4c32)cc1 | 83.9 |
| Cc1cc(F)c(Nc2ncnc3cc(OCc4ccccc4)ccc23)cc1O | 78.6 |
| Cc1ccc(F)c(NC(=O)Nc2ccc(-c3cccc4[nH]nc(N)c34)cc2)c1 | 93.2 |

Study 2 — cell line: A-375; concentration: 100 µM; time: 18 h
| Structure (SMILES) | viability [%] |
| --- | --- |
| O=C(N/N=C/c1ccc([N+](=O)[O-])o1)c1ccc(O)cc1 | 26.8 |
| CC(C)(Oc1ccc(CCNC(=O)c2ccc(Cl)cc2)cc1)C(=O)O | 106 |
| Clc1ccccc1CN1CCc2sccc2C1 | 43.3 |
| CCC(C)(C)c1ccc(CC(C)CN2C[C@@H](C)O[C@@H](C)C2)cc1 (some centres unmarked) | 11.4 |
| NC(=O)N[C@@H](CCC(=O)O)C(=O)O | 93.6 |
| COc1cc2c(cc1OC)[C@H]1CC(=O)[C@H](CC(C)C)CN1CC2 (racemic) | 77.5 |
| OC[C@@H](O)[C@@H](O[C@@H]1O[C@H](CO)[C@H](O)[C@H](O)[C@H]1O)[C@H](O)[C@@H](O)CO | 96.4 |
| C[C@H](Cn1cnc2c(N)ncnc21)OCP(=O)(O)O | 95.8 |

Study 3 — Compound: COc1cc2ncnc(Nc3cccc(Cl)c3)c2cc1OC; observed: enzyme activity; action: inhibitor; concentration: 0.5 µM; reference: control
| target | remaining activity [%] |
| --- | --- |
| ACVR1B (Homo sapiens, UniProt P36896) | 98 |
| NEK6 (Homo sapiens, UniProt Q9HC98) | 105 |
| NEK1 (Homo sapiens, UniProt Q96PY6) | 93.1 |
| MAP2K2 (Homo sapiens, UniProt P36507) | 102 |
| JAK3 (Homo sapiens, UniProt P52333) | 91.6 |
| ULK2 (Homo sapiens, UniProt Q8IYT8) | 103 |
| FRK (Homo sapiens, UniProt P42685) | 81.1 |
| GSK3B (Homo sapiens, UniProt P49841) | 98.7 |
| RPS6KA2 (Homo sapiens, UniProt Q15349) | 85.5 |
| MERTK (Homo sapiens, UniProt Q12866) | 76.9 |
| MAP3K5 (Homo sapiens, UniProt Q99683) | 106 |
| MAPK3 (Homo sapiens, UniProt P27361) | 96.4 |
| EPHA3 (Homo sapiens, UniProt P29320) | 97.9 |
| CSNK1G2 (Homo sapiens, UniProt P78368) | 97.1 |

Study 4 — observed: cell-free assay; technique: competition with immobilised ligand; concentration: 1 µM
SMILES: COc1cc(-c2cn(C3CCc4ccccc4N(CC(F)(F)F)C3=O)nn2)ccc1-n1ccc(C)n1 (centres unmarked)
| target | remaining binding |
| --- | --- |
| STK38 (Homo sapiens, UniProt Q15208) | 100% |
| NTRK2 (Homo sapiens, UniProt Q16620) | 93% |
| KIT (Homo sapiens, UniProt P10721, V559D/V654A) | 100% |
| PIK3CA (Homo sapiens, UniProt P42336, H1047Y) | 100% |
| EPHA5 (Homo sapiens, UniProt P54756) | 100% |
| CAMK2A (Homo sapiens, UniProt Q9UQM7) | 85% |
